Assay results pooled from the literature.
A part holds a random share of what one study measured. Positions count from the first letter of the parent shown.

Block 1
Target: inorganic phosphate, free oxyanion
Technique: microfluidic competitive inhibition
Matrix: in vitro, cell-free expressed
Concentration: not given
Notes: derived from inhibition constants, unchanged parent 615000 nM
Direction: lower = stronger binding
Starting sequence: PafA, mature enzyme, eGFP fusion (Elizabethkingia meningoseptica, UniProt Q9KJX5); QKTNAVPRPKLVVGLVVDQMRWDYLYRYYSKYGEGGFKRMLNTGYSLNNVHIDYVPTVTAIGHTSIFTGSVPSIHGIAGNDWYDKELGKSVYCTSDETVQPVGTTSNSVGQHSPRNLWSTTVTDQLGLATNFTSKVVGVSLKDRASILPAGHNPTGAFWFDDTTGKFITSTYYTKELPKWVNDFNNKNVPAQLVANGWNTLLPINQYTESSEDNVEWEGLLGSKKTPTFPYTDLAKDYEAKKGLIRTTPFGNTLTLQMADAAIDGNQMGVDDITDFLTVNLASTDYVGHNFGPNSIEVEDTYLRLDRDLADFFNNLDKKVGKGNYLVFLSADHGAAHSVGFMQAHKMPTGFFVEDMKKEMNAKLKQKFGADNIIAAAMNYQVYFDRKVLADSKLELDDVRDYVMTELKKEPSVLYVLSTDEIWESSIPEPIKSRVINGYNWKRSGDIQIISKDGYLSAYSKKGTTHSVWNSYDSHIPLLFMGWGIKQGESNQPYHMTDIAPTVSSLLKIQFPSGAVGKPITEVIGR
`P348V` — result for “phosphate dissociation constant”: 576 µM.
For `E429V`, “phosphate dissociation constant” read 515 µM.
`V50A`: “phosphate dissociation constant” 506 µM.
`F229G` — result for “phosphate dissociation constant”: 128 µM.
`S474G` — result for “phosphate dissociation constant”: 419 µM.
For `T232G`, “phosphate dissociation constant” read 590 µM.
For `Y231V`, “phosphate dissociation constant” read 509 µM.
`K346G`: “phosphate dissociation constant” 495 µM.

Block 2
Target: UDP-N-acetylglucosamine--peptide N-acetylglucosaminyltransferase 110 kDa subunit (OGT, Homo sapiens, UniProt O15294)
Chain of UniProt O15294 (whole entry, looked up): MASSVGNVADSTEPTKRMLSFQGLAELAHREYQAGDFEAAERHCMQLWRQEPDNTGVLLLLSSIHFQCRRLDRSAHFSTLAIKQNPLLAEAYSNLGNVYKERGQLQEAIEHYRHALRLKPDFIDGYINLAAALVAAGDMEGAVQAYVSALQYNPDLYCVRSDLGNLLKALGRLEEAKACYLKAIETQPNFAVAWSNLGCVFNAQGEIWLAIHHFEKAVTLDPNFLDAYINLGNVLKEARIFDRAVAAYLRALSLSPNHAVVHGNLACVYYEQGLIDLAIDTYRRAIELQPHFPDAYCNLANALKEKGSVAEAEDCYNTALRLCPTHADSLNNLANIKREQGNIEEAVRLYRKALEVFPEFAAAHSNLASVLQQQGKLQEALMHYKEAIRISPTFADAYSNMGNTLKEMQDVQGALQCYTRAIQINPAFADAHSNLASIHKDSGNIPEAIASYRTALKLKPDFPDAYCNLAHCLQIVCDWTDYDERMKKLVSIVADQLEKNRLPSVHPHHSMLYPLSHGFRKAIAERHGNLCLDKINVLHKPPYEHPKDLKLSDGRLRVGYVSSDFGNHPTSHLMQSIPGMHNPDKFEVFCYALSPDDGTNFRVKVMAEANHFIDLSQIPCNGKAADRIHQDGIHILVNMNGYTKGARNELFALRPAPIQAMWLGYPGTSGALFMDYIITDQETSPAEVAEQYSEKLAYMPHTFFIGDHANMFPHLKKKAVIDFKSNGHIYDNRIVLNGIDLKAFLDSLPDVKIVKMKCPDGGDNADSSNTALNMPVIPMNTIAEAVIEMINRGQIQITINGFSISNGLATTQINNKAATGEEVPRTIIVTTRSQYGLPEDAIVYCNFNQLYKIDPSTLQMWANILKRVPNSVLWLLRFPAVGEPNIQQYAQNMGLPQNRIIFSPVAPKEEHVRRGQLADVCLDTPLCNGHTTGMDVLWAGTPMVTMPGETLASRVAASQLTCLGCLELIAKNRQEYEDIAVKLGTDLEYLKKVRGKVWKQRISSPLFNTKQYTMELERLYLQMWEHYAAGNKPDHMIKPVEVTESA
Effect on: binding
Technique: phage display NGS
Molecule type: peptide
Concentration: concentration not given
Relative to: input library
Under “enrichment fold change”, `SRPIKWVPQYQIVI` is recorded as 2.9.
Under “enrichment fold change”, `VGMNQNAYMPMYQIH` is recorded as 10.4.
`YTIDVVFEPKYQIMT`: “enrichment fold change” 8.08.
`RNLHWDHHGPEHQHF`: “enrichment fold change” 7.97.
Under “enrichment fold change”, `HNHRHHITSAAIAQA` is recorded as 4.06.
Under “enrichment fold change”, `WMENFHMPSMMHIQY` is recorded as 2.63.
Under “enrichment fold change”, `TGMHDAHPHWWHMTV` is recorded as 9.8.
`VPLYHERHHHGPHE` — result for “enrichment fold change”: 6.56.

Single results of other studies
`Oc1cccc2cccnc12` gave a viability of 29.4% (HaCaT; 100 µM, 36 h).
`COc1ccc2c(c1OC)C(=O)O[C@@H]2[C@H]1c2cc3c(cc2CCN1C)OCO3` gave a viability of 101% (Huh-7; 10 µM, 24 h).

A few entries again (block 1):
`P348V` — result for “phosphate dissociation constant”: 576 µM.
For `E429V`, “phosphate dissociation constant” read 515 µM.
`V50A`: “phosphate dissociation constant” 506 µM.
